# Assay results pooled from the literature.
# Numbered parts are unrelated; each lists some results of a single study.

# Set 1 — method: protein-binding microarray; molecule type: double-stranded DNA, one strand shown; matrix: in vitro; tested at: 2540 nM top; notes: 60-bp whole probe; added: salmon DNA 0.4 mg/ml; relative to: random background probes; reading: higher = stronger binding; shared flanks, not repeated: GCCTAGCAC … GTCTTGATTCGCTTGACGCTGCTG
# Target: Interferon regulatory factor 3, full length, phosphomimetic (IRF3, Homo sapiens, UniProt Q14653, residues 1-427, S386D/S396D/S398D/S402D/T404D/S405D)
# Chain of UniProt Q14653 (whole entry, unmodified, looked up): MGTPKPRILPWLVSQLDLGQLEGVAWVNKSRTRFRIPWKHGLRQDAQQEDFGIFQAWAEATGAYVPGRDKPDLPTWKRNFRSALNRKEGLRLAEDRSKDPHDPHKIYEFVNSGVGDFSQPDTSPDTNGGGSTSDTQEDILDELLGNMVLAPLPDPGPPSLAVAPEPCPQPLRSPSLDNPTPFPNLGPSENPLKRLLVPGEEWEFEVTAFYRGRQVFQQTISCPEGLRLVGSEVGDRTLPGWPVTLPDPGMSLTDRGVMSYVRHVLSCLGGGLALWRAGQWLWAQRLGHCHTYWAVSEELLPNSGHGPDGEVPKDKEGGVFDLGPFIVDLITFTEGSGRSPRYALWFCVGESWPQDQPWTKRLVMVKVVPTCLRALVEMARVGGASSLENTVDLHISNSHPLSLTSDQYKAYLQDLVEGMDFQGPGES
Oligonucleotide,fitted relative affinity [z-score]
TTAGGTTTCGGTTTCGTTTAGTGCTAG,11.9
GACGGACTGCTTGTCCTGACGTGCTAG,-0.395
AGACACCCCTTTGGTGCCACGTGCTAG,0.184
TTAGATTTCTGTATCGATTAGTGCTAG,2.34
CTAGATTTCGGGTATCGATTAGTGCTA,1.61
TTAGGTATCGGTTTCGGTCAGTGCTAG,7.93
GACGATCTCATTTTCGAGACGTGCTAG,1.91
TTAGGTATCGGGTTTCTGTTAGTGCTA,2.44
TTAGGACTGGTTTTCCTTTAGTGCTAG,2.36
AGGTTTCTATATTTGCTTCAGTGCTAG,3.23
TTAGATACCGGGTATCGATTAGTGCTA,0.444
GACGGTTTCGCGACTGGGGACGTGCTA,1.96
TTAGGTTTCCTACTGATTTAGTGCTAG,4.34
TCATCTCTGTTTTTGCTACTGTGCTAG,1.36
GACCAACTGGGGTTTCGAGACGTGCTA,0.534
GACGTACTGGGGACTGGGGACGTGCTA,-0.577
TTACATTTCGGGTTTCGATTAGTGCTA,2.97
TTAGGTTTCGGTATCGGTCAGTGCTAG,8.3
TTAGGTTTCGCGACTGGGTTAGTGCTA,1.3
ATGCATGTGCTGTCTCAGAGTGTGCTA,0.00532
TCTCTTTCCTTCTTGATGCAGTGCTAG,7.62
TCAGCTTTGCTTCCTGCACTGTGCTAG,-0.169
ATAGGTTTCCTTTTCCTTTAGTGCTAG,11.9
TTAGGCCTGGGACTGGGTTAGTGCTAG,-1.33
GACGGTATCTGGTTTCGGGACGTGCTA,2.53

# Set 2 — method: Spec-seq; molecule type: double-stranded DNA, one strand shown; matrix: in vitro; tested at: not given; notes: whole probe, mean of replicates; relative to: not given; reading: lower = stronger binding; shared flanks, not repeated: GAGTCGTCTCGTCAGCAC … CCGTAGAGCACTCAGGTC
# Target: POU, POU domain (Salpingoeca helianthica)
# Target sequence (chain): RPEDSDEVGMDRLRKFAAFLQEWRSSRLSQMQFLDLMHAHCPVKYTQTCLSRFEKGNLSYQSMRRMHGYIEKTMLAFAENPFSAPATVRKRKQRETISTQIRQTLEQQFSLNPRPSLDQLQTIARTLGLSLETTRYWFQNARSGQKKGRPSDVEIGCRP
Oligonucleotide,relative binding energy
CGTATAAT,0.533 ln ratio
ATTTAGAT,0.625 ln ratio
ATCCCAAT,1.11 ln ratio
GCGGTAAT,0.712 ln ratio
ATCATCAT,1.11 ln ratio
CGCCTAAT,0.939 ln ratio
ATAAGCAT,0.875 ln ratio
ATGCGAAA,1.3 ln ratio
ATGGAAAT,1.21 ln ratio
GGGGTAAT,0.66 ln ratio
ATGGACAT,1.28 ln ratio
ATATCGAT,1.03 ln ratio
TCCCTAAT,0.635 ln ratio
ATGCGGGT,1.34 ln ratio
ATTTGTAT,0.844 ln ratio
ATGCCTCA,1.69 ln ratio

# Set 3 — method: RNA Bind-n-Seq; molecule type: RNA; matrix: in vitro; tested at: 365 nM; relative to: no-protein control; reading: higher = stronger binding
# Target: RNA binding protein fox-1 homolog 2, RRM domain, GST-SBP tag (RBFOX2, Homo sapiens, UniProt O43251-10, residues 100-194)
# Notes: natural RNA segment, single round, ends assumed
# Construct (chain): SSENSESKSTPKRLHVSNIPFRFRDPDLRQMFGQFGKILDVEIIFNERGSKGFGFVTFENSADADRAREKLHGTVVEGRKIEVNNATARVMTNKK
Oligonucleotide,RBNS enrichment (R)
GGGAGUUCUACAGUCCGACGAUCUUCUGAUGAGCCUGUAGAGAAGCCUAGAGAGCCCCGGGCCAUCUGAUGAUGUCACCAGUGCUGCCUCAGAUGAUACAGAGACAGGGAGUUUCAGGUGAACUUCUUCAGCAUGGAAUUCUCGGGUGCCAA,0.491
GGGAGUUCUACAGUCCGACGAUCCCCUAAUCCCUCCCCAGCGGCAAGCCCCUCUUUUCAGAGUGGGCAGAGGGUUGCCUAUGGUGGGCACUAGGAAUGAGGUCCCCUGCCUCGAUGCGGGUCCUAGGAGAAAAUGGAAUUCUCGGGUGCCAA,0.382
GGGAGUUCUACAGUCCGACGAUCAAACAUUUCUAACCUUUGGUUUGCUGACAUGUGUAGUAACUCUCUAAAAUGUCUGGAGAUGGGCAAGGAAGAUGCAGGGCCUCUGAAUAGUAGAUGUGAGAACUUGGGUUUGGAAUUCUCGGGUGCCAA,0.878
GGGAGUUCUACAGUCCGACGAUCCCCUGAGCCAGGUGCCACCACUGUAAGGAAAUGCCUUCAGAAAUUCACUGGUUCCUUCAAAGCGCUCAAGCCUCUGUGUCCUCCUUUGUCUCUUUGCUUUCCAGCCUCGCUGGAAUUCUCGGGUGCCAA,0.539
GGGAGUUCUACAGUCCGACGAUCCUCCUAGGUGCAUGAUUCAGUGCGUGCCAUGUGUCAUUAGCUUUUACUGAUAACCAUAUUCUGGCUUGUUCCCUUACCCCCUACUUCUAUCCAAUUUUCUCUGCUAGGGGUGGAAUUCUCGGGUGCCAA,11.4
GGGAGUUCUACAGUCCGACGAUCAUAUUGCAACCCAGUAUAGGUGUAUUUCAAAAGCUAUUUAUAAAACUCAGAACAAUUUAACUUGCUAAUUAUAUCACCUUCCAGAUUGGAGAAAGGAGACAGUAAGGUAUUGGAAUUCUCGGGUGCCAA,0.549
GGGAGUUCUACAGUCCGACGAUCCUUCUCUGUCCUUAGUUGUGAGCUUCUCCAUGCUGUGCCAAUGGCUAGCCUUUUCUACACCCUCUUUUGAGUGUAGUUUGAUAUUUUGUAAUCAAAAGCUCAUUUCACAAUGGAAUUCUCGGGUGCCAA,0.464
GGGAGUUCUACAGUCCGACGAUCGUAGAAUUCAGAGACUUCUCAUUCAAUCUUGUAUCCUAUGCAGCUACAAAUAUUUUUUAAAUGUUAGUAAUAAACAUUGGAAUUUUGUCUUAAAGAGUUCAAAACCUUGGUGGAAUUCUCGGGUGCCAA,0.546
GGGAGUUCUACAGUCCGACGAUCUUGGGGCAUUUAAAGCUACUCUUCUUUCUUCUUCCUCUCUUGACCACAUCCUAGACCCAGUUCCAUAUACACUUCUUCAUCCCAAUACACAGGAAACAUGGAUAAGGAAGUGGAAUUCUCGGGUGCCAA,0.755
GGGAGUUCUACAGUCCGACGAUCGACAGUAUUUUGUUUUGCUUUGAUUUGGGGGGGAAGGGUUCAUCUUGCUUUUGGAGGUUGUUUUGGGGAAAAAACAGUUUAUAUAAACUGAUUUUUGUAGUUUUGGUAUUUGGAAUUCUCGGGUGCCAA,2.6
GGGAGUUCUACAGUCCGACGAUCUCAGAGUGUUGUUCCGUUAAUUUUGUAAAUACUGCUCGACUGUAACUCUCACAUGUGACAAAGUAUGGUUUGUUUGGUUGGGUUUUGUUUUUGAGAAUUUUUUUGCCCGUUGGAAUUCUCGGGUGCCAA,5.59
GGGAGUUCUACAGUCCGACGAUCUUUGGGGUUGCCAUGGCCAAUGAGAUUUAUAAUCAUGAUCCUCUUGGGUGGUAGUUCCAAAGACACUACUAAUGUGCAGAGAGCGCUCCGGCCUCUGGUGCUGGCCACUAUGGAAUUCUCGGGUGCCAA,0.299

# Set 4 — method: aptamer microarray, sandwich; molecule type: DNA with 2'F-ANA; matrix: in vitro; tested at: 200 nM; added: Cy3 exosite-II aptamer, 400 nM; reading: higher = stronger binding; oligonucleotide: GGTTGGTGTGGTTGG
# Target: Prothrombin, mature alpha-thrombin (F2, Homo sapiens, UniProt P00734)
# Notes: whole 15-mer aptamer, many near background
Modification,mean fluorescence intensity [a.u.]
2'F-ANA at 4 5 6 7 9 11,59.3
2'F-ANA at 3 4 6 7 10 11 14 15,196
2'F-ANA at 2 3 5 6 7 8 10 11 14 15,86.8
2'F-ANA at 1 2 7 8 9 10 11 12 13 14 15,47.6
2'F-ANA at 2 3 4 5 6 7 8 10 13 15,164
2'F-ANA at 1 2 4 5 9 11 12,121
2'F-ANA at 1 2 3 5 8 9 10 11 12,56
2'F-ANA at 1 4 5 6 7 8 9 14 15,77.4
2'F-ANA at 3 5 7 8 10 13,55.6
2'F-ANA at 2 7 8 10 13 14 15,77.3
2'F-ANA at 2 3 6 11 12 13 15,639
2'F-ANA at 1 3 6 7 8 9 12 14,131
2'F-ANA at 4 7 9 14,91.1
2'F-ANA at 3 5 6 9 10 14 15,52.7
2'F-ANA at 1 5 8 12 15,131
2'F-ANA at 1 2 7 9 11 12 13 14,53.9
2'F-ANA at 3 4 5 8 9 10 11 13 14,48.2
2'F-ANA at 2 3 5 6 7 8 9 11 13 14 15,53.1

# Set 5 — method: universal PBM; molecule type: double-stranded DNA, one strand shown; matrix: in vitro; tested at: 600 nM; reading: higher = stronger binding
# Target: Sal-like protein 4, full length isoform A (SALL4, Homo sapiens, UniProt Q9UJQ4, residues 1-1053)
# Chain of UniProt Q9UJQ4 (whole entry, looked up): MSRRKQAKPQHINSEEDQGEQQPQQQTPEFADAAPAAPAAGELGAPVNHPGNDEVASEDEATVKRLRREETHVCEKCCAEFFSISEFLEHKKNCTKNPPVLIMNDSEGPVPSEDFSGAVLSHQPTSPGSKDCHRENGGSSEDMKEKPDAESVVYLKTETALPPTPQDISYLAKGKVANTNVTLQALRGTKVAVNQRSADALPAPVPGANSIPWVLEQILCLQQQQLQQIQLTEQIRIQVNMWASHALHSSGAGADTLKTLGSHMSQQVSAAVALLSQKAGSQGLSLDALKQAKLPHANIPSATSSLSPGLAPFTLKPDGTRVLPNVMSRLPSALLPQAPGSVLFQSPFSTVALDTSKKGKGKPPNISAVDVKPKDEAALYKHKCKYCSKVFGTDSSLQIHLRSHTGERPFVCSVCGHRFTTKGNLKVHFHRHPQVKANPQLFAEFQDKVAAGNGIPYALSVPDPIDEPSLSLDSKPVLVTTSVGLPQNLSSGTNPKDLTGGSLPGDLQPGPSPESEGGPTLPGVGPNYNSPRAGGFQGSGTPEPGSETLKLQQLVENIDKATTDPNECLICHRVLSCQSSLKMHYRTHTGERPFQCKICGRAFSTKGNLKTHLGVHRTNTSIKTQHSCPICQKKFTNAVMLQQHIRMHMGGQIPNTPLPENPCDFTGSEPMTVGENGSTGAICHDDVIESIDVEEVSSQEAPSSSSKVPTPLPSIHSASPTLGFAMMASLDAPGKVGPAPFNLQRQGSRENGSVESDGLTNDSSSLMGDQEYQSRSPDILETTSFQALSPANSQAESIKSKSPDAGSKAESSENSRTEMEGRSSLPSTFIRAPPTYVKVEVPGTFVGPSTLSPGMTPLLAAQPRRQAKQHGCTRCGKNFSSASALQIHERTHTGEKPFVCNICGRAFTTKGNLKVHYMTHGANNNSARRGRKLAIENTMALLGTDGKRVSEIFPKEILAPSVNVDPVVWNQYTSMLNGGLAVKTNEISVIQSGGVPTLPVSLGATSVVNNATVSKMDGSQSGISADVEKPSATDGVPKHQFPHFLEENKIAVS
# Notes: 8-mer, flanks averaged, mean of replicates
Oligonucleotide,E-score
ATGAGTCA,0.205
CAGAACAG,-0.123
CTGAGGAC,-0.0901
CACTAAAG,-0.0315
AACCGTGA,-0.0532
GTCTAAAA,0.115
TGAAGCCA,0.077
ATTTCACG,0.101
ATTACACA,0.306
CAGGCCCG,-0.361
ACCGATCC,-0.3
CCATCTCA,-0.109
AGACGGCC,-0.367
TCATTAAA,0.311
TGCGCCCA,-0.204
CACTCAAC,0.174
ATCGGCGG,-0.189
AGATTAGA,0.194
CTGCAAAC,0.0824
CTACTAGC,0.022
GATCCATC,-0.131
AGACGCAC,-0.0921
GTGTTAAA,0.184
CCAACGGA,-0.224
CTATGTTA,0.189

# For quick reference, copied from above (set 4):
Modification,mean fluorescence intensity [a.u.]
2'F-ANA at 3 4 6 7 10 11 14 15,196
2'F-ANA at 2 3 5 6 7 8 10 11 14 15,86.8
2'F-ANA at 1 2 7 8 9 10 11 12 13 14 15,47.6
2'F-ANA at 2 3 4 5 6 7 8 10 13 15,164
2'F-ANA at 1 2 4 5 9 11 12,121
2'F-ANA at 1 2 3 5 8 9 10 11 12,56
2'F-ANA at 1 4 5 6 7 8 9 14 15,77.4
2'F-ANA at 3 5 7 8 10 13,55.6
2'F-ANA at 2 7 8 10 13 14 15,77.3
2'F-ANA at 2 3 6 11 12 13 15,639
2'F-ANA at 1 3 6 7 8 9 12 14,131
2'F-ANA at 4 7 9 14,91.1
2'F-ANA at 3 5 6 9 10 14 15,52.7
2'F-ANA at 1 5 8 12 15,131
